{"data": "Results pooled from the literature", "organism": "Bacillus cereus", "note": "Each line is one published result; not all experiments were run side by side. Numbers after ± are the reported error."}
{"Structure (SMILES)": "Oc1c(Cl)cc(Cl)c2cccnc12", "test": "microbial growth, agar dilution", "endpoint": "MIC", "result": "37.4 µM"}
{"Structure (SMILES)": "CCOC(=O)C1=C(C)NC2=C(C(=O)CC(C)(C)C2)C1c1ccc(OCC(=O)NN=Cc2cccc([N+](=O)[O-])c2)cc1OCC(=O)NN=Cc1cccc([N+](=O)[O-])c1 (stereo not shown)", "system": "EMC19", "setting": "concentration not given, 24 h, 37 °C", "endpoint": "inhibition zone diameter", "result": "8.6 ± 0.3 mm"}
{"Structure (SMILES)": "Cc1cc(O)c2c(c1)C(=O)c1cc3oc(=O)cc(-c4ccc(O)cc4)c3c(O)c1C2=O", "system": "MTCC 1306", "setting": "100 µg/disc", "endpoint": "zone of inhibition", "result": "8 mm"}
{"Structure (SMILES)": "CO[C@H]1O[C@H](COC(c2ccccc2)(c2ccccc2)c2ccccc2)[C@@H](OS(=O)(=O)c2ccccc2)[C@H](OS(=O)(=O)c2ccccc2)[C@H]1OS(=O)(=O)c1ccccc1", "setting": "concentration not given", "endpoint": "inhibition zone diameter", "result": "15 ± 0.3 mm"}
{"Structure (SMILES)": "CC(=O)[O-].O.O.[O-]c1ccc(Br)cc1C=NCCN1CCOCC1.[Zn+2]", "setting": "20 µL of 100 µM per disc", "endpoint": "inhibition zone diameter", "result": "26 mm"}
{"Structure (SMILES)": "COc1c2c(cc3oc(=O)cc(-c4ccc(Cl)cc4)c13)C(=O)c1cc(C)cc(O)c1C2=O", "system": "MTCC 1306", "setting": "100 µg/disc", "endpoint": "zone of inhibition", "result": "13 mm"}
{"Structure (SMILES)": "Oc1c(Br)ccc2cccnc12", "test": "microbial growth, agar dilution", "endpoint": "MIC", "result": "35.7 µM"}
{"Structure (SMILES)": "Cc1cc(O)c2c(c1)C(=O)c1cc3oc(=O)cc(-c4ccc(Cl)cc4)c3c(O)c1C2=O", "system": "MTCC 1306", "setting": "100 µg/disc", "endpoint": "zone of inhibition", "result": "8 mm"}
{"Structure (SMILES)": "CC(C=CC(O)=C1C(=O)CNC1=O)=CC(C)C1OC2(C)OC(C1C)C(O)C1OC12C (stereo not shown)", "endpoint": "MIC", "result": "> 100 µM"}
{"Structure (SMILES)": "O=C(O)CN1C(=O)/C(=C/c2ccc(-c3ccc(N(c4ccccc4)c4ccccc4)cc3)cc2)NC1=S", "test": "broth microdilution", "system": "ATCC 10876", "endpoint": "MBC/MIC ratio", "result": 2}
{"Structure (SMILES)": "Cc1cc(O)cc2c1C(=O)c1c(cc3oc(=O)cc(C)c3c1O)C2=O", "system": "MTCC 1306", "setting": "100 µg/disc", "endpoint": "zone of inhibition", "result": "< 8 mm"}
{"Structure (SMILES)": "CCOC(=O)C1=C(C)NC2=C(C(=O)CC(C)(C)C2)C1c1ccc(OCC(=O)NN=Cc2cc(Br)c(O)c(Br)c2)cc1OCC(=O)NN=Cc1cc(Br)c(O)c(Br)c1 (stereo not shown)", "system": "EMC19", "setting": "concentration not given, 24 h, 37 °C", "endpoint": "inhibition zone diameter", "result": "13.4 ± 0.03 mm"}
{"Structure (SMILES)": "CC(/C=C/C(O)=C1/C(=O)CNC1=O)=C\\[C@@H](C)[C@H]1O[C@@]2(C)O[C@H](C[C@@H]3O[C@@]32C)[C@@H]1C", "endpoint": "MIC", "result": "> 100 µM"}
{"note": "Excerpt of the above:"}
{"Structure (SMILES)": "Cc1cc(O)c2c(c1)C(=O)c1cc3oc(=O)cc(-c4ccc(O)cc4)c3c(O)c1C2=O", "system": "MTCC 1306", "setting": "100 µg/disc", "endpoint": "zone of inhibition", "result": "8 mm"}
{"Structure (SMILES)": "CO[C@H]1O[C@H](COC(c2ccccc2)(c2ccccc2)c2ccccc2)[C@@H](OS(=O)(=O)c2ccccc2)[C@H](OS(=O)(=O)c2ccccc2)[C@H]1OS(=O)(=O)c1ccccc1", "setting": "concentration not given", "endpoint": "inhibition zone diameter", "result": "15 ± 0.3 mm"}
